Measured values of several laboratories.
Each line is one published result; not all experiments were run side by side. ± gives the spread as reported.

| Compound | target or system | test | system | conditions | scale | measurement | result |
| --- | --- | --- | --- | --- | --- | --- | --- |
| O=C1NC2(CC2)COc2ncc(F)cc2[C@H]2COCCN2c2ccn3ncc1c3n2 | Salmonella typhimurium | Ames test | TA97a | 500 µg/plate, 48 h, together with: rat liver S9 |  | revertant colonies | 102 ± 17 revertants/plate |
| CCN(CC)CC#CCNc1ccnc2cc(Cl)ccc12 | Salmonella typhimurium | mini-Ames test | TA102 | 500.0 µg/well, with rat liver S9 |  | mean revertants | 87 revertants/well |
| COc1cccc(OC)c1-c1cc(C(=O)NC2(C(=O)O)C3CC4CC(C3)CC2C4)nn1-c1ccc(C(=O)N(C)CCCN(C)C(=O)[C@H](CCCCNC(=O)[C@H](CC(C)C)NC(=O)C2OC2C(=O)O)NC(=O)CN2CCN(CC(=O)[O-])CCN(CC(=O)[O-])CCN(CC(=O)[O-])CC2)cc1C(C)C.[177Lu+3] (mixture of isomers) | HT-29 tumour model |  | host not given, pancreas | 24 h, tumour-bearing |  | tracer uptake | 0.12 %ID/g |
| N#C[C@@H]1CC(F)(F)CN1C(=O)CNC(=O)c1ccnc2c(NC(=O)CCOCCOCCOCCOCCOCCOCCNC(=O)[C@H](CCCCNC(=O)CN3CCN(CC(=O)[O-])CCN(CC(=O)[O-])CCN(CC(=O)[O-])CC3)NC(=O)CCCc3ccc(I)cc3)cccc12.[177Lu+3] | U-87 MG tumour model |  | host not given, bone | 4 h, tumour-bearing |  | tracer uptake | 2.29 %ID/g |
| N#C[C@@H]1CCCN1C(=O)CNC(=O)c1ccnc2ccc(OCCCN3CCN(C(=O)CCc4ccc5c(c4)CN4CCN6CC(=O)[O][68Ga-]([O]C(=O)C4)([O]5)[O]c4ccc(CCC(=O)N5CCN(CCCOc7ccc8nccc(C(=O)NCC(=O)N9CCC[C@H]9C#N)c8c7)CC5)cc4C6)CC3)cc12 | U-87 MG tumour model |  | host not given, intestine | 2 h, tumour-bearing |  | tracer uptake | 2.67 %ID/g |
| COc1cccc(OC)c1-c1cc(C(=O)NC2(C(=O)O)C3CC4CC(C3)CC2C4)nn1-c1ccc(C(=O)NCCNC(=O)[C@H](CCCCNC(=O)[C@H](CC(C)C)NC(=O)C2OC2C(=O)O)NC(=O)CN2CCN(CC(=O)[O-])CCN(CC(=O)[O-])CCN(CC(=O)[O-])CC2)cc1C(C)C.[177Lu+3] (mixture of isomers) | HT-29 tumour model |  | host not given, stomach | 4 h, tumour-bearing |  | tracer uptake | 0.42 %ID/g |
| N#C[C@@H]1CCCN1C(=O)CNC(=O)c1ccnc2ccc(OCCCN3CCN(C(=O)CCc4ccc(O)c(CN5CCN6CC(=O)[O][Al-]([18F])([O]C(=O)C5)[O]c5ccc(CCC(=O)N7CCN(CCCOc8ccc9nccc(C(=O)NCC(=O)N%10CCC[C@H]%10C#N)c9c8)CC7)cc5C6)c4)CC3)cc12 (some centres unmarked) | U-87 MG tumour model |  | host not given, liver | 2 h, tumour-bearing |  | tracer uptake | 4.42 %ID/g |
| O=C(OC[C@@]1(O)C(=O)C=C[C@H]2[C@@H]1[C@H]1C=C[C@@H]2C(=O)[C@]1(O)COC(=O)c1ccccc1)c1ccccc1 | SW480 | cell growth or viability, MTT |  |  |  | IC50 | 155 µM |
| CC(C)Cc1ccc(C(C)C(=O)N[C@@H](CCCCNC(=O)CCOCCOCCOCCOCCOCCOCCNC(=O)CN2CCN(CC(=O)[O-])CCN(CC(=O)[O-])CCN(CC(=O)[O-])CC2)C(=O)Nc2cccc3c(C(=O)NCC(=O)N4CC(F)(F)C[C@H]4C#N)ccnc23)cc1.[177Lu+3] (some centres unmarked) | U-87 MG tumour model |  | host not given, heart | 4 h, tumour-bearing |  | tracer uptake | 2.89 %ID/g |
| Cl.NCc1ccc2c(c1)CN(C1CCC(=O)NC1=O)C2=O (centres unmarked) | HuH-1 | CellTiter-Glo |  | concentration not given, 72 h |  | minimum viability | 61.7 ± 3.76% |
| C[C@@H](Nc1c(-c2c(F)cc(C#N)cc2F)c(Cl)nc2ncnn12)C(C)(C)C | Salmonella typhimurium | Ames test | TA98 and TA100 | 3.9 to 125 µg/mL |  | mutagenicity | negative |
| COc1cccc(OC)c1-c1cc(C(=O)NC2(C(=O)O)C3CC4CC(C3)CC2C4)nn1-c1ccc(C(=O)N(C)CCOCCOCCN(C)C(=O)[C@H](CCCCNC(=O)[C@H](CC(C)C)NC(=O)C2OC2C(=O)O)NC(=O)CN2CCN(CC(=O)[O-])CCN(CC(=O)[O-])CCN(CC(=O)[O-])CC2)cc1C(C)C.[177Lu+3] (mixture of isomers) | HT-29 tumour model |  | host not given, bone | 72 h, tumour-bearing |  | tracer uptake | 0.31 %ID/g |
| Nc1nc2cc(C(=O)c3ccc(F)cc3)ccc2[nH]1 | Salmonella typhimurium | Ames preincubation test | TA98 | 156.0 µg/plate, without S9 |  | revertants | 17.3 revertants/plate |
| O=C1C2CC3CC1CC(C(=O)N1CCN(c4ccc([N+](=O)[O-])c5ncccc45)CC1)(C3)C2 | Salmonella typhimurium | Ames test | TA100 | 0.02 µg/well, without S9 | reference: vehicle | revertant fold increase | 1 |
| N#C[C@@H]1CC(F)(F)CN1C(=O)CNC(=O)c1ccnc2c(NC(=O)[C@H](CCCCNC(=O)CCOCCOCCOCCOCCOCCOCCNC(=O)CN3CCN(CC(=O)[O-])CCN(CC(=O)[O-])CCN(CC(=O)[O-])CC3)NC(=O)CCCc3ccc(I)cc3)cccc12.[177Lu+3] | U-87 MG tumour model |  | host not given, liver | 96 h, tumour-bearing |  | tracer uptake | 0.91 %ID/g |
| [Cu+2].c1cc2nc(c1)CNCc1cccc(n1)CNC2 | Cu(II)/Cu(I) redox couple | cyclic voltammetry | DMF | together with: TBAP | reference: Fc/Fc+ | cathodic peak potential | -789 mV |
| C=C(NC(=O)c1csc(-c2nc3c(cc2O)-c2nc(cs2)C(=O)NC(C(C)O)C(=O)NC(=C(C)OC)c2nc(cs2)C(=O)NC2c4nc(cs4)C(=O)NC(COC(=O)c4c5c6c(cccc6n4O)COC(=O)C(OC4CC(C)(O)C(N(C)C)C(C)O4)C2OC5)c2nc-3cs2)n1)C(N)=O (centres unmarked) |  |  | ICR mice, Streptococcus pneumoniae ATCC 49169 infected, immunocompromised, blood | intravenous, 2 mg/kg/day twice daily |  | Cmax | 91.3 ng/mL |
| CNC(=O)C1CCCN(C(=O)C2CC3CCC2N3C(=O)[C@@H]2C[C@@H](O)CN2C(=O)NCc2cccc(Cl)c2F)C1 (mixture of isomers) | CYP3A4 (human) | inhibitor, time-dependent inhibition |  | 0.206 µM, preincubated without NADPH, together with: testosterone substrate |  | 6β-hydroxytestosterone formation | 168 ng/mL |
| FC(F)(F)c1cc2nc(c1)CNCc1cc(C(F)(F)F)cc(n1)CNC2.[Cu+2] | Cu(II)/Cu(I) redox couple | cyclic voltammetry | DMF | together with: TBAP | reference: Fc/Fc+ | half-wave potential | -716 mV |
| CC(C)OCCOCc1ccc(OCC(O)CN(N=O)C(C)C)cc1 (centres unmarked) | Salmonella typhimurium | Ames test | TA98 | 158 µg/plate, without metabolic activation | reference: solvent control | revertant fold increase | 0.8 fold |

Some of these lines once more:
| Compound | target or system | test | system | conditions | scale | measurement | result |
| --- | --- | --- | --- | --- | --- | --- | --- |
| N#C[C@@H]1CCCN1C(=O)CNC(=O)c1ccnc2ccc(OCCCN3CCN(C(=O)CCc4ccc5c(c4)CN4CCN6CC(=O)[O][68Ga-]([O]C(=O)C4)([O]5)[O]c4ccc(CCC(=O)N5CCN(CCCOc7ccc8nccc(C(=O)NCC(=O)N9CCC[C@H]9C#N)c8c7)CC5)cc4C6)CC3)cc12 | U-87 MG tumour model |  | host not given, intestine | 2 h, tumour-bearing |  | tracer uptake | 2.67 %ID/g |
| N#C[C@@H]1CCCN1C(=O)CNC(=O)c1ccnc2ccc(OCCCN3CCN(C(=O)CCc4ccc(O)c(CN5CCN6CC(=O)[O][Al-]([18F])([O]C(=O)C5)[O]c5ccc(CCC(=O)N7CCN(CCCOc8ccc9nccc(C(=O)NCC(=O)N%10CCC[C@H]%10C#N)c9c8)CC7)cc5C6)c4)CC3)cc12 (some centres unmarked) | U-87 MG tumour model |  | host not given, liver | 2 h, tumour-bearing |  | tracer uptake | 4.42 %ID/g |
